Measurements of several laboratories.
Parts stem from different laboratories: compare values within a part only.

Study 1 — technique: protein binding microarray; form: double-stranded DNA, one strand shown; sample: in vitro; tested at: not given; relative to: not given; reading: higher = stronger binding
Target: Histone acetyltransferase KAT6A, winged helix 1, GST fusion (KAT6A, Homo sapiens, UniProt Q92794, residues 1-85)
Setting: 8-mer, flanks averaged, mean of 2 arrays, mostly near background
Construct (chain): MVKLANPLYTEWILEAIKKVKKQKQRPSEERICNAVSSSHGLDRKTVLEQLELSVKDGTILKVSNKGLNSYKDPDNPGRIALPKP
Sequence | E-score
TGGTCAAA | -0.0639
ATAAAAAG | -0.103
AGACAGCT | -0.23
CCAAGCTA | -0.115
GGGCGTTA | 0.00724
ATGCAACC | -0.119
GGGCTACC | -0.0795
TACACGTA | -0.0259
ACTAGGTA | -0.183
AGCTATTG | -0.145
GTAGAGGA | -0.249
ACGCTCTA | 0.116
ACCTCTTA | 0.0092
AGTTGTGA | -0.196
CATATCGG | 0.0989
ATAAAATG | -0.187
GACCCGAC | 0.201

Study 2 — technique: protein-binding microarray; form: double-stranded DNA, one strand shown; sample: in vitro; tested at: not given; reading: higher = stronger binding
Target: Transcriptional repressor CTCF (CTCF, Homo sapiens, UniProt P49711, residues 1-727, full length assumed)
Setting: k-mer, scored over probes, only values ≥0.25
Construct (chain): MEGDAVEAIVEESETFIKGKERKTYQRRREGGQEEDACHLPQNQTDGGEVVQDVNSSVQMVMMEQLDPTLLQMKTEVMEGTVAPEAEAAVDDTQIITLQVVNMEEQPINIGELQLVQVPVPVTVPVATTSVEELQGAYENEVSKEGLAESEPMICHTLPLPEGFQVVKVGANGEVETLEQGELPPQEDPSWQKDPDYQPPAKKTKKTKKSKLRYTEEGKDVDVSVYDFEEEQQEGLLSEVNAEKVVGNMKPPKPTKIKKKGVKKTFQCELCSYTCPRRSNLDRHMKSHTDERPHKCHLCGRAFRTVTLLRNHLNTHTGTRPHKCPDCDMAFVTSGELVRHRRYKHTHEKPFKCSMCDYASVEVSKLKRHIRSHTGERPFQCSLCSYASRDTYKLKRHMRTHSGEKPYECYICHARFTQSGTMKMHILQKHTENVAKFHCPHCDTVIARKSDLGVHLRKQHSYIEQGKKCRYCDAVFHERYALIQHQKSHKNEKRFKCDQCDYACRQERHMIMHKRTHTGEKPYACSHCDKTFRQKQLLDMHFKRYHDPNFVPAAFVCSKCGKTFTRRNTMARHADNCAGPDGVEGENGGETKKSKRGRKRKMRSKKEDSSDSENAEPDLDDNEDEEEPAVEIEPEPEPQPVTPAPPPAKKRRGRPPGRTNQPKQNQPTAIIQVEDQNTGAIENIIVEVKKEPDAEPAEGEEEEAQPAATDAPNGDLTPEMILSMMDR
Sequence | E-score
ATTAATAC | 0.321
AATTTTCC | 0.259
AAAATTAT | 0.321
ACACATAT | 0.267
AACATATA | 0.349
AAGTAAAT | 0.252
ATAATTAT | 0.369
CCGCAAGG | 0.277
ATATTAAT | 0.376
ATAGCGCA | 0.27

Study 3 — technique: protein-binding microarray; form: double-stranded DNA, one strand shown; sample: in vitro; tested at: 2540 nM top; setting: 60-bp whole probe; together with: salmon DNA 0.4 mg/ml; relative to: random background probes; reading: higher = stronger binding; constant ends, left off below: GCCTAGCAC … GTCTTGATTCGCTTGACGCTGCTG
Target: Interferon regulatory factor 3, full length, phosphomimetic (IRF3, Homo sapiens, UniProt Q14653, residues 1-427, S386D/S396D/S398D/S402D/T404D/S405D)
Construct (chain): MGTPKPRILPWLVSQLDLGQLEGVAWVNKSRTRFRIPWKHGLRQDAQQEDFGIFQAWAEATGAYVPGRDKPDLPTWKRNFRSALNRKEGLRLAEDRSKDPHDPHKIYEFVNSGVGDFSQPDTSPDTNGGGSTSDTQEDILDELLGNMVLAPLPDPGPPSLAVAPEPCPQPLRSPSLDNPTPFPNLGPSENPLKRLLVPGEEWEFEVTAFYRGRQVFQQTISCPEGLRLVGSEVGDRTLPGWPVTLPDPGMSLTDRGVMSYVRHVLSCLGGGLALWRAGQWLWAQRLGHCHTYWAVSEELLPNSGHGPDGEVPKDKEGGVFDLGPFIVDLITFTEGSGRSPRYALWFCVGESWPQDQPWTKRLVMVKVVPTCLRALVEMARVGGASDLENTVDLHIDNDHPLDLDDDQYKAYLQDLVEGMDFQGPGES
Sequence | fitted relative affinity [z-score]
TTAGATCTCAGTAGCGATTAGTGCTAG | -0.18
TCAGGTCTCTAACTCAAACTGTGCTAG | 0.628
TCAAAATTAGTGTTTGCCACTGTGCTA | -0.414
GACGGTAGCGGTATCGGGACGTGCTAG | 1.05
TCAAATATTCATTTTATACTGTGCTAG | 1.06
TTAGGTTTCGGCTCCGGTTAGTGCTAG | 2.97
TTAGGTATCGACTTTCGGTCAGTGCTA | 1.28
CACGGTATCCTTATCCTGACGTGCTAG | 4.86
ACATTTTTTTCATTATTGTTGTGCTAG | 1.37
TTAGGTCTCCTACTGCTATAGTGCTAG | 0.966
TTAGGTATCGACAATGGGTTAGTGCTA | -0.129
GACGATCTCAGACTGGAGAGGTGCTAG | 0.168
CTCTAAGACACAAGATCAGAGTGCTAG | -0.173
TCATGTACATCTCTCTTACTGTGCTAG | 0.36
GACGGTCTCCTTCTCCTGGCGTGCTAG | 4.27
GACGATTTCAGTTACGAGACGTGCTAG | 1.83
TTAGATTTCGGGACAGGATTAGTGCTA | 1.2
GACGGTATCGAATTTCGGGACGTGCTA | 1.69
TCAGCTTTACTGATGGCACTGTGCTAG | -0.0633
TCAAAAGTGTTTCTCAAACTGTGCTAG | 0.241

Mixed results
Molecule | target | test | system | setting | how to read | measurement | value
PhoQ, residues 284 288 289 292 302 303 SCCLKL | PhoP, residues 12 14 15 18 19 QWHVF (Escherichia coli, UniProt P23836) | Sort-seq, refers to: YFP reporter | E. coli | PhoQ-PhoP variant library, together with: 10 µM Mg2+ | relative to: high Mg2+ state, higher = stronger signaling | fold induction | 6.84

For quick reference, copied from above (study 1):
Sequence | E-score
AGTTGTGA | -0.196
CCAAGCTA | -0.115
ATGCAACC | -0.119
